# Experimental data from different studies.
# Numbered parts are unrelated; each lists some results of a single study. Positions count from the first letter of the parent shown.

# Set 1 — method: protein binding microarray; molecule type: double-stranded DNA, one strand shown; sample: in vitro; concentration: not given; reference: not given; direction: higher = stronger binding
# Target: Histone acetyltransferase KAT6A, winged helix 2, GST fusion (KAT6A, Homo sapiens, UniProt Q92794, residues 85-181)
# Setting: 8-mer, flanks averaged, mean of 2 arrays, mostly near background
# Target sequence (chain): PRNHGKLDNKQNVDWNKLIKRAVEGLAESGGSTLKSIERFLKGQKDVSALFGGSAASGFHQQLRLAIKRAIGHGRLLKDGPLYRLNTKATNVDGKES
Strand,E-score
ACCGTGCT,-0.0808
ATTCATGG,-0.0854
CCATGTGA,-0.191
GATAAGCC,-0.0854
GGCGACTA,0.00963
GGCTCAAC,-0.0201
AGCTAGGA,-0.0909
CGTGACGA,0.126
ACTCTGCA,-0.024
ATTTGTAG,-0.00231
ACCCAAGC,-0.128
CTGTTCGC,0.161
CACCGAGG,0.0601
GTCCCGAA,-0.147
ATGGAGAA,0.0168
ATACAGCA,0.137
GGTTATAC,-0.239
ACAAATCA,-0.0454
ATAGACAG,0.0162
CAGGATCC,-0.0605
AAATTTCG,0.0485
CTGGCGAA,0.0803
GGACTACC,-0.114
CCCAACGG,0.072
TATTCTCA,-0.0325

# Set 2 — target: CCNE1, cyclin fold, Cln2 fusion (human); method: yeast growth competition, sequencing; sample: yeast; setting: weak parent motif; reference: not given; direction: higher = stronger binding
# Starting sequence: HASPIN docking peptide (human); ASLRSVLFGLMNS
Variant,normalised enrichment score
F8A,0.288
G9A,1
M11A,0.951
S2A,0.402
L3A,0.459
L7A,0.147

# Set 3 — target: CEP164, C-terminal peptide (human); method: DHFR complementation, deep sequencing; sample: yeast; reference: wild type; direction: higher = weaker binding
# Setting: single substitutions, model-inferred values
# Starting sequence: PDZK1, PDZ domain 2 (human); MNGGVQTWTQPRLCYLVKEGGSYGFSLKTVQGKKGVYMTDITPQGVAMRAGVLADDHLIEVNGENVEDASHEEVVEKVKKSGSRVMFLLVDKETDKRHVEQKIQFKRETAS; partner HNRVKVYRF
Variant,binding free energy change [kcal/mol]
T109A,-0.195
Q104S,-0.169
M86V,-0.0609
K106W,-0.248
D40E,0.181
D56C,0.298
N65F,0.475
D68I,0.226
V85G,1.56
Q6V,-0.0341
V5M,-0.00744
V78I,0.101
Q101T,-0.0413
V5F,-0.0123
K79C,0.313

# Set 4 — method: RNA Bind-n-Seq; molecule type: RNA; sample: in vitro; concentration: 365 nM; reference: no-protein control; direction: higher = stronger binding
# Target: RNA binding protein fox-1 homolog 2, RRM domain, GST-SBP tag (RBFOX2, Homo sapiens, UniProt O43251-10, residues 100-194)
# Setting: natural RNA segment, single round, ends assumed
# Shared flanks, not repeated: GGGAGUUCUACAGUCCGACGAUC … UGGAAUUCUCGGGUGCCAA
# Target sequence (chain): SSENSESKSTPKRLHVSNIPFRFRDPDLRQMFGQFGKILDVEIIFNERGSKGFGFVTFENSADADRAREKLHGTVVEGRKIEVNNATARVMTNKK
Strand,RBNS enrichment (R)
AGCAGCAUUGGCUGCUUUUGUUGGUAGCAUGGAUUCAUGUUUUCUCAGAGGAACUUUUCACUUGAAACUGUUGAUCUACUUGUCCAAAAGACCAGCUGCUGCGACACUAA,0.381
CUUCUGCUGCCUGACCUCUGCAUGGUGUCUUGACCUGGGCCUCAUGUGUAGCUGCACUGCCUUUGUCCACUAAGACCUCUAGUUUUUGGUGUAAAAGGGUCCCUGGUUUC,1.72
AAACCACAAUUCAGGACCAAAUUUUUUCUCCGUGUGUGUUUAUUCCUUAUAGGUGUAAUUGAGAAGACCCGUUUAUUUUUACCCCCUCACGGACUCUCCAUCUUUGUAUU,0.574
CACGUGGGCUGAGCUGACUUGAUGCUCCUAUGGGUGGUGCCCGGCCCCCACGGGGGUUCACUAGGUUUGGGCCUGAGAACACCUGUCUGGACAAAGGUGAUGAAACCAAG,0.867
ACCUACUAGUGGUCCCUGGCAGCUGUGGGCAAGGCCUGGGUAGUCAGACUGUUAACACCACAGUCCUUAGCAGUGGUCAAUGUCCAGUUCCCCCGCACAGGUCCUGCUUC,0.318
CAUAAACAUGACAGGCUUUUGGACUUUGUAUUACCUGUAUGUUUUAUAAUGGAUCAUGCAUAAUUUCUCAGGAGAAUAAAAUGAGAAUUCAUAUAUACGUUCAUCUUUCA,1.3
AAAAAGUAACAAGCUGUUCCUUGUUUCUGAUACAUAAAAUUAUUUUAAGCAUUUUAUCAAUCAUUAAAAUUUACUGCCAGUUGUGAGUGGCUUUUUAAUUAACUUGUCUU,0.486
GCUCAGAUGCUGCAGUGCAGGGGCUUCAGCAUUCUUGAGUUCCUCCGUGUUAAUAAAAACAUCCUGUACAGUUGGGGACUAUGUUGUUAAUUUUGUCCCCUUAACAGCAG,0.705
UGUGGGAGACAGCAGCCUGUAUGUGGUGUGGGGCGUGGAUCGAGUGUAGCUGUGAAAUCCAUAUAUAUGAAAUGUCCUGCGGGAUACAGUCUUAGCUGACUUUUUUUUAC,1.67
AAGGCAAACCCAUGGUCACAGCAGGCCAUUUAGAGACUGAGUGGGCGGGGCACUUACCAUCCCUUCCACAAAGGAUAGCUUCCCCCAGCUCAAAAUGUAACUGUUUCUAA,0.28
UAGAACUGUCAAAUUCAUCUCCCUGAAUUUGUCUUAAAGGGGUGUCCAUGCACAGGCCCAAGAGUCACCUCCAAUGAAAUAAAUGUAAUACUGAAGUAUGCCAUGAUGUU,0.839
UGCUCCUGUAUUAUUAACUUGCUUCAGUUAACUGACUUGAGAAACUAACCAAUUUUUACCUUCUGCCUAGAAUGAUGUACACAUAGGAGAGAAAGCUAUCAUGUUCCCGA,0.769

# Set 5 — method: protein-binding microarray; molecule type: double-stranded DNA, one strand shown; sample: in vitro; concentration: 2200 nM top; setting: 60-bp whole probe; added: salmon DNA 0.4 mg/ml; reference: random background probes; direction: higher = stronger binding; shared flanks, not repeated: GCCTAGCAC … GTCTTGATTCGCTTGACGCTGCTG
# Target: Interferon regulatory factor 7, full length, phosphomimetic (IRF7, Homo sapiens, UniProt Q92985, residues 1-503, S471D/S472D/S475D/S476D/S477D/S483D/S484D/S487D)
# Residues (chain): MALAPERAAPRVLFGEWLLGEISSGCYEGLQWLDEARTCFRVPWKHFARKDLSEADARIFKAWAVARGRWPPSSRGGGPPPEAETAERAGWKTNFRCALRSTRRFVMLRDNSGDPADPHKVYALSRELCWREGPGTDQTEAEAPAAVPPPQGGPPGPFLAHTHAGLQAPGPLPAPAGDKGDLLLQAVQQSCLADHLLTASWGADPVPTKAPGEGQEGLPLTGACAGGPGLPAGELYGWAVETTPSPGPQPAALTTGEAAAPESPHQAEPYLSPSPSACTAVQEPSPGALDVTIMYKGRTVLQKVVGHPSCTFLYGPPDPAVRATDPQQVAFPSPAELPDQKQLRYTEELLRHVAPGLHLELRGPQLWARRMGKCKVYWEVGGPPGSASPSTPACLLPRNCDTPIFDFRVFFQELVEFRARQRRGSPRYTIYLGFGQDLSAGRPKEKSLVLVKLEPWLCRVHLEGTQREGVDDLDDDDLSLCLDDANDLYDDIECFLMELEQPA
Strand,fitted relative affinity [z-score]
GTTTTTTTTTAATTGAAATCGTGCTAG,0.853
GACGAACTGAGTATCGTGACGTGCTAG,-0.0511
TCATGTCTGATTATTTAACTGTGCTAG,0.719
GACGATTTCAGATCCGAGACGTGCTAG,0.852
TTAGGTTTCCTCTCCCTTTAGTGCTAG,2.23
GACGAACCGGGGACTGGAGACGTGCTA,-0.519
GACGATATGAGACTGGAGACGTGCTAG,0.0128
GGGCCGAGGCTGTGGCCACCGTGCTAG,-1.4
CGCTCTGTGCTCTTTGGGCTGTGCTAG,0.624
GATGGTTTCGGTTTCGGGACGTGCTAG,15.9
GCCGGTATCGGACTGGGGACGTGCTAG,-0.251
TTAGGACTGCTACTGCTCTAGTGCTAG,-0.182
TTATGGTGTGGAGAAGGCACGTGCTAG,-0.598
TTAGATCTCAGCCTCGATTAGTGCTAG,0.125
TTAAATTTCAGTTTCGATTAGTGCTAG,8.59
TCCATTTTTACCCTCCTTACGTGCTAG,3.21
TCAGGACTGCTACTGCTTTAGTGCTAG,0.127
TTAGATATCCTTATCCTTTAGTGCTAG,0.791
GACGATATCAGTTGCGAGACGTGCTAG,0.381
GCCGGTATCGACACTGGGGACGTGCTA,-0.249
TTAGGTCTGCTTATCCTTTAGTGCTAG,0.697

# Set 6 — target: CREB3L3, bZIP domain (human); method: DHFR protein complementation; sample: yeast; reference: wild-type JUN-FOS pair; direction: higher = stronger binding
# Setting: single substitutions, most at no-binding floor
# Starting sequence: JUN, bZIP domain (human); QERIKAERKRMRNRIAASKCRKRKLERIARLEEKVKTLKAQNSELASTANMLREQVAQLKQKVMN; partner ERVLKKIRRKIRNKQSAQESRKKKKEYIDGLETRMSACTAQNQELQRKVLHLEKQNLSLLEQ
Variant,binding fitness
S47W,-1.52 natural log
A40M,-1.46 natural log
I28D,-1.19 natural log
E44W,-1.57 natural log
E32R,-1.37 natural log
L52I,-0.97 natural log
V35E,-1.52 natural log
S47T,-1.36 natural log
R53D,-1.51 natural log
A40Q,-1.03 natural log
T37E,-1.47 natural log
L45N,-1.5 natural log
A40S,-1.43 natural log
E33W,-1.52 natural log
E32F,-1.34 natural log
A29K,-1.46 natural log
N42P,-1.55 natural log
A29N,-1.44 natural log
E33C,-1.48 natural log

# Set 7 — method: RNA Bind-n-Seq; molecule type: RNA; sample: in vitro; concentration: not given; reference: input RNA pool; direction: higher = stronger binding
# Target: RING finger protein unkempt homolog, zinc fingers 1-6, GST-SBP tag (UNK, Homo sapiens, UniProt Q9C0B0, residues 30-357)
# Sequence of UniProt Q9C0B0 (30-357, looked up): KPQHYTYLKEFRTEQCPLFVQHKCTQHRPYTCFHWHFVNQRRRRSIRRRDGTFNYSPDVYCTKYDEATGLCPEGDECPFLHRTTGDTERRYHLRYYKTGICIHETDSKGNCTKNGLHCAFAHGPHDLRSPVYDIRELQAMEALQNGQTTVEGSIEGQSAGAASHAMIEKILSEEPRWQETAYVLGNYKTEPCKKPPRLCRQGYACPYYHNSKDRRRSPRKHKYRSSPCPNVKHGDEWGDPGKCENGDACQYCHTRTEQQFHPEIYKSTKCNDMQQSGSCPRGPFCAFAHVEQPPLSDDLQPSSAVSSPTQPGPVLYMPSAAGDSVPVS
# Setting: RNA with constant flanks, human-mouse chimeric sites, ends assumed
# Shared flanks, not repeated: GGGAGUUCUACAGUCCGACGAUC … CAACAGAGGAUUGAGCAUCA
Strand,bound/input enrichment [ratio]
GUACUGCAGCAGCAGGGAAAACUGCAGGAAGCUCUGAUGCAUUAUAAGGAGGCUAUUCGAAUUAGUCCUACCUUUGCUGAUGCCUACUCUAAUAUGGGAAACACUCUAAAGGAGAUGCAG,0.181
UUUGUAUUUAUGCUAAGCACACGUGCUGGUGGUCUUGGCAUCAAUCUUGCAACUGCUGAUGUAGUCAUUUUGUAUGACUCAGAUUGGAAUCCGCAAGUUGAUCUUCAGGCUAUGGACCGU,0.125
GUAUACGGUUAUCGAGGAAAGGACUGUAGAGCGAAUGUUUACCUUCUUCCCACAGGGGAGAUAGUUUAUUUUAUCGCAUCAGUAGUAGUCCUGUUUAAUUAUGAGGAGAGGACUCAGCGA,1.54
GGCUGCUGGUGACUGUCCUGGAGUGGCUGGAGUUCCCGCCGGAGCGCGGCCAGACUAAUUAUAGAAAAUGCCAAGUAGGAAGUUUGUCGAUGGUGAAGUGGUCAGAGGCCGAUGGCCUGG,1.48
UCUUUAAAAAAAAAAUUACCUUUUCUGACAGUGCUUUCCCUCCCAUAGAUCCACGUUCACACUAGAAGAGCAAAGGCUUUGCACGGAGCUCAAACAUCUGAUGAAGAUUUUUGAGACAGA,1.94
AAAUCGUGUGUGUCAAAUAUUGAAAGUGCUUUAUCUACACUCCAGUAUGUAAGCAGUAUAGUAGUUUCUUUAGAGAAUAGGUCAGCCAUUGUAAAGUAUAAUGCAAGCUUAGUCACUCCA,14.6
CAGGGCAUCAUCUCUCGUGCUGUUAGACACCUUUUUAAGAGUAUUGAUGAGAAAAAGCACAUAGCAAUUAAAAACGGGCUGCCCCCUCCUGAAUUCAAAGUGAAUGCCCAGUUCCUAGAG,0.872
CGGAGCCCUCCUCUCCCCCAGGCCCGAGAUAUAACCCACCAGUGCCUUCUGUCUGCUUGUCAGCUCUGUCAAUCACGCCUGUCCUCUCACGCCCACACCAAGUGCCCAAAGUGGGGAGGG,0.586
GUCAACAGCUGCCUCAACCCCAUCCUCUACGCCUUCCUGGAUGAGAACUUCAAGGCCUGCUUCCGCAAGUUCUGCUGUGCUUCUGCCCUGCGCCGGGAGAUGCAGGUGUCUGACCGCGUG,0.324
AUGGAACAUUUCGAUGCGUCACUCAGUACCUAUUUCAAGGCAUUGCUGGGCCCCCGAGAUACAAGAGUCAAAGGAUGGUUCCUCCUGGACAAUUACAUCCCUACGUUUAUCUGCUCUGUU,0.115
GCUCUUGGGAAUGUAAUCAGCGCCUUGGGGGACAAGAGCAAGAGAGCCACCCAUGUCCCUUACAGAGAUUCCAAGCUGACAAGACUCUUGCAGGAUUCCCUCGGGGGUAACAGCCAAACC,0.176

# Other studies, line by line
Substance,target,assay,test system,conditions,how to read,quantity,result
"PhoQ, residues 284 288 289 292 302 303 ASTSDA","PhoP, residues 12 14 15 18 19 YHFSH (Escherichia coli, UniProt P23836)","Sort-seq, measured: YFP reporter",E. coli,"PhoQ-PhoP variant library, added: 10 µM Mg2+","reference: high Mg2+ state, higher = stronger signaling",fold induction,2.56

# Some of these lines once more (set 6):
Variant,binding fitness
A29N,-1.44 natural log
V35E,-1.52 natural log
A29K,-1.46 natural log
E33C,-1.48 natural log
A40M,-1.46 natural log
S47W,-1.52 natural log
E32R,-1.37 natural log
R53D,-1.51 natural log
I28D,-1.19 natural log
E33W,-1.52 natural log
E32F,-1.34 natural log
A40S,-1.43 natural log
T37E,-1.47 natural log
